Measured values from different studies.
A part holds a random share of what one study measured. Substitutions count along the parent as printed.

Set 1 — target: UBE2B UBC core domain (UniProt P63146); method: yeast two-hybrid; sample: yeast; setting: mostly zero background; relative to: not given; direction: higher = stronger interaction; measurement: lacZ reporter activity
UniProt P63146, sequence (whole entry, looked up): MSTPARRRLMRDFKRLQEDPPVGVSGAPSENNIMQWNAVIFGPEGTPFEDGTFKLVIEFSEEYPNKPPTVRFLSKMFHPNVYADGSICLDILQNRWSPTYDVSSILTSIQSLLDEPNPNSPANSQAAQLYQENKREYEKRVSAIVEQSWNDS
B1: RNF150 RING domain (UniProt Q9ULK6); chain DKETESDFDNCAVCIEGYKPNDVVRILPCRHLFHKSCVDPWLLDHRTCPMCKMNILKALGIP
B2: TRIM10 RING domain (UniProt Q9UDY6); chain SVTSLADEVNCPICQGTLREPVTIDCGHNFCRACLTRYCEIPGPDLEESPTCPLCKEPFRPGSFRP
B3: RNF14 RING domain (UniProt Q9UBS8); chain IKCFNSKLFLCSICFCEKLGSECMYFLECRHVYCKACLKDYFEIQIRDGQVQCLNCPEPKCPSVATPGQVK
B4: TRIM3 RING domain (UniProt O75382); chain VQPMDKQFLVCSICLDRYQCPKVLPCLHTFCERCLQNYIPAQSLTLSCPVCRQTSILPEQGV
B5: TRIM15 RING domain (UniProt Q9C019); chain SLKVVHELPACTLCAGPLEDAVTIPCGHTFCRLCLPALSQMGAQSSGKILLCPLCQEEEQAETPMA
B6: ANKIB1 RING domain (UniProt Q9P2G1); chain LSPGDLDTSLCDICMCSISVFEDPVDMPCGHDFCRGCWESFLNLKIQEGEAHNIFCPAYDCFQLVPVDIIE
B7: PHF7 RING domain (UniProt Q9BWX1); chain IQHGHVGEESCILCCEDLSQQSVENIQSPCCSQAIYHRKCIQKYAHTSAKHFFKCPQCNNRKEFPQEML
B8: RNF175 RING domain (UniProt Q8N4F7); chain LPTRSLSDNICAVCGQKIIVELDEEGLIENTYQLSCNHVFHEFCIRGWCIVGKKQTCPYCKEKVDLKRMIS
B9: TRIM55 RING domain (UniProt Q9BYV6); chain TMDNLEKQLICPICLEMFTKPVVILPCQHNLCRKCASDIFQASNPYLPTRGGTTMASGGRFRCPSCRHEVVLDRHG
B1 (RNF150 RING domain): 0
B2 (TRIM10 RING domain): 0
B3 (RNF14 RING domain): 0
B4 (TRIM3 RING domain): 0
B5 (TRIM15 RING domain): 0
B6 (ANKIB1 RING domain): 0
B7 (PHF7 RING domain): 0
B8 (RNF175 RING domain): 0
B9 (TRIM55 RING domain): 0
KRQCSDVDDICSICQAEFQKPILLICQHIFCEECMTLWFNREKTCPLCRTVISDHINKW (RNFT1 RING domain (UniProt Q5M7Z0)): 0

Set 2 — target: CCNF, cyclin fold, Cln2 fusion (human); method: yeast growth competition, sequencing; sample: yeast; setting: strong parent motif; relative to: not given; direction: higher = stronger binding; measurement: normalised enrichment score
Parent: SCAPER docking peptide (human); SNARRSLNFGGST; partner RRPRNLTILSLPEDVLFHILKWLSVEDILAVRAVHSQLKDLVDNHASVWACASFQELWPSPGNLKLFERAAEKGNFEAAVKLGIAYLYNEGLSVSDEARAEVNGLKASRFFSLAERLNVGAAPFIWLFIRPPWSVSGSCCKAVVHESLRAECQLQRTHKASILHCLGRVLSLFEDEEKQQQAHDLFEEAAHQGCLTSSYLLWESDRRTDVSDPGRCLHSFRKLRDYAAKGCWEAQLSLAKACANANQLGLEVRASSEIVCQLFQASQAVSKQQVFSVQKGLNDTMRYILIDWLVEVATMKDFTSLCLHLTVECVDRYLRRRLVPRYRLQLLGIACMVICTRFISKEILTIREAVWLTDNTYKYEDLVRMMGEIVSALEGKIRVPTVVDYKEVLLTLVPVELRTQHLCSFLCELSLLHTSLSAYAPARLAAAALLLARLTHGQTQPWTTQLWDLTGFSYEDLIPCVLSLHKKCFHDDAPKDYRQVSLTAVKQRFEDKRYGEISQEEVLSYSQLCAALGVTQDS
N8P: 2.08
R5W: 0.791
G11R: 5.45
R4D: 0.47
R4K: 6.66
R5E: 0.249
L7G: 0.36
T13E: 7.41
G10N: 5.85
R5M: 1.72
A3I: 7.06
S1D: 6.14
R4I: 5.67
N8M: 7.02
G10K: 4.99
A3L: 3.61
S12F: 7.34
R5Q: 0.837
G10F: 6.33
N8T: 4.7
N2H: 7.11
N2D: 4.28
R5G: -0.481
R4P: 1.68
S6G: 5.85

Set 3 — target: NFE2, bZIP domain (human); method: DHFR protein complementation; sample: yeast; relative to: wild-type JUN-FOS pair; direction: higher = stronger binding; measurement: binding fitness
Setting: single substitutions, most at no-binding floor
Parent: JUN, bZIP domain (human); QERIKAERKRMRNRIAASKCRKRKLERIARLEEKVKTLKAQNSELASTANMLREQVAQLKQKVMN; partner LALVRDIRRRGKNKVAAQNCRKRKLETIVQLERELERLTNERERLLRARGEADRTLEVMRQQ
E54W: -1.53 natural log
A46E: -1.46 natural log
V56M: -1.12 natural log
A49F: -1.47 natural log
A29I: -1.48 natural log
I28P: -1.34 natural log
L38W: -1.39 natural log
Q55K: -1.46 natural log
S47C: -1.43 natural log
V35W: -1.51 natural log
V56R: -1.38 natural log
T48D: -1.5 natural log
T48C: -1.32 natural log
R53W: -1.4 natural log
T37A: -1.37 natural log
A29K: -1.48 natural log
L31H: -1.56 natural log
S43R: -1.33 natural log
A57K: -1.49 natural log
L38A: -1.32 natural log

Set 4 — method: DHFR PCA, dose-response; sample: yeast; setting: Hill fit, not affinity; added: (+)-ABA, dose series; direction: lower = more sensitive; measurement: ABA EC50
Target: ABI1, truncated, D143A, DHFR fusion (Arabidopsis thaliana, UniProt P49597)
Parent: PYL1, truncated, DHFR fusion (Arabidopsis thaliana, UniProt Q8VZS8); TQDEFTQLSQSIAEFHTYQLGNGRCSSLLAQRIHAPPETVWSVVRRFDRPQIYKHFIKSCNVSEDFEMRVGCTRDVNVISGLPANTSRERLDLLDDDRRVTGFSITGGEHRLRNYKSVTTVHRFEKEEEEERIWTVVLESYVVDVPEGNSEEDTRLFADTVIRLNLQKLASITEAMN
T120Y: 1110 µM
E129G: 2.29 µM
R123K: 2.13 µM
N149S: 24.9 µM
N77V: 7.07 µM

Excerpt of the above (set 2):
N2D: 4.28
N2H: 7.11
R4I: 5.67
S1D: 6.14
G10K: 4.99
N8M: 7.02
R5G: -0.481
